Assay results pooled from the literature.
Each numbered part is a random draw from the data of one study; scales do not carry over between parts.

Sample 1
Target: Fragile X messenger ribonucleoprotein 1, C-terminal low-complexity region (Fmr1, Mus musculus, UniProt P35922)
Technique: RNA Bind-n-Seq
Form: RNA
Sample: in vitro
Tested at: 200 nM
Notes: whole 134-nt RNA, ends assumed
Together with: 150 mM LiCl
Baseline: input library
Reading: higher = stronger binding
All molecules: 7-deaza-guanosine replaces G
Sequence	log2 enrichment
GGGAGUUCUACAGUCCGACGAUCGGGUGGACACUGACGAGCUGGACAGCAACGUGGACGACUGGGAAGAGGAGACCAUUGAGUUCUUCGUCACUGAAGAAAUCAUUCCCCUCGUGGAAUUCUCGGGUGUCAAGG	-3
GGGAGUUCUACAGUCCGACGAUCAGUCCUGUGCUACACAUCGUAUGUACCGAAUCGGUUUUUGGAAAAAGGUUUUUUUGGAAAGUAUUAUGUUACGCCGUUCGGAUCUGCACUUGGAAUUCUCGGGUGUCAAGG	-3.18
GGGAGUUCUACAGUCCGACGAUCCUGUGCUACACAUCGUAUGUACCGAAUCGGGUUUUUUUGGGAAAAAAAGGGAAAAAAAGGGAAAGUAUUAUGUUACGCCGUUCGGAUCUGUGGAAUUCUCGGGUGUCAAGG	-1.94
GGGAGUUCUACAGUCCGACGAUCCAAGUCCUGUGCUACACAUCGUAUGUACCGAAUCGGGAGGGAAAAAAAGGGAGGGAAAGUAUUAUGUUACGCCGUUCGGAUCUGCACUUCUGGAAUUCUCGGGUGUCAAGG	0.185
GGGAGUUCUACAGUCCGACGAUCCACAGACAACACGCACCCACACAAACACAGAGGGAAGGGGUUGGGAUGGGGACAGGGUGCACAGCAGGGCGGGGUAGGACCCCAGCCCCUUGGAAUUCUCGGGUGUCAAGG	0.01
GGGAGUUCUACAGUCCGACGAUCGUCCUGUGCUACACAUCGUAUGUACCGAAUCAAAGUGUGUGUGUGUGUGUGUGUGAAAAAAGUAUUAUGUUACGCCGUUCGGAUCUGCACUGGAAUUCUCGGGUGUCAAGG	-0.564
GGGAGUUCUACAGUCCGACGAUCAAGUCCUGUGCUACACAUCGUAUGUACCGAAUCGGGAAAAAGGGUGGGUUUUUGGGAAAGUAUUAUGUUACGCCGUUCGGAUCUGCACUUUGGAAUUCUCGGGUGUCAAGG	-2.11
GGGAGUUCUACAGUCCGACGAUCGUCCUGUGCUACACAUCGUAUGUACCGAAUCGGUUUUUUGGUUUUUUGGGGUUUUUUGGAAAGUAUUAUGUUACGCCGUUCGGAUCUGCAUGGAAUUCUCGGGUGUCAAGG	-1.27
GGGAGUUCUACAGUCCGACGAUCCCUCAAGUCCUGUGCUACACAUCGUAUGUACCGAAUCGGAGGUUUUUGGAGGAAAGUAUUAUGUUACGCCGUUCGGAUCUGCACUUCCAGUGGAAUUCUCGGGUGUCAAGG	-0.542
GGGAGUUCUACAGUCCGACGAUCGUCCUGUGCUACACAUCGUAUGUACCGAAUCGGGCCCCCGGGCCCCCGGCCCCCGGGGAAAGUAUUAUGUUACGCCGUUCGGAUCUGCACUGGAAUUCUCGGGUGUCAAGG	-1.71
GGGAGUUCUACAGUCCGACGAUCUAACUUUAGAGGAGGAUCUGAUGGAUAUGGCAGUGGACGUGGAUUUGGGGAUGGCUAUAAUGGCUAUGGAGGAGGACCUGGAGGUGGCAAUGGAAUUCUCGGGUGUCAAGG	0.712

Sample 2
Target: Interferon regulatory factor 5, full length, phosphomimetic (IRF5, Homo sapiens, UniProt Q13568-2, residues 1-514, S451D/S453D/S456D/S462D)
Technique: protein-binding microarray
Form: double-stranded DNA, one strand shown
Sample: in vitro
Tested at: 940 nM top
Notes: 60-bp whole probe
Together with: salmon DNA 0.4 mg/ml
Baseline: random background probes
Reading: higher = stronger binding
Constant ends, left off below: GCCTAGCAC … GTCTTGATTCGCTTGACGCTGCTG
Sequence	fitted relative affinity [z-score]
CTCCCCCTCCCCCTCAGATCGTGCTAG	-0.0582
ATCTTCATGAAATTTTAGTAAGTGCTA	-0.145
GACGGACTGCTTCACCTGACGTGCTAG	-0.552
GTCGGTCTCGGACTGGGGACGTGCTAG	1.34
GTCGGACTGGGGTATCGGGACGTGCTA	0.49
GATGGTCTCCTTTTCCTGACGTGCTAG	0.831
GACGGTTCCCTTTCCCTGACGTGCTAG	0.72
TTGGATATCAGACTGGATTAGTGCTAG	-0.702
TTAGGTTTCCTTATCCTTCAGTGCTAG	1.8
GACGGTATCGGTTACGGGACGTGCTAG	8.41
TCAAATTGTCTTTTCACACTGTGCTAG	0.461
TTAGGTTTCGGACTGAGTTAGTGCTAG	6.94
TCACTTTGCCTTTTGCTACTGTGCTAG	0.924
GACGATATCCGTCTCGAGACGTGCTAG	0.405
TTAGGACTGCTTTTCCTTTAGTGCTAG	-0.128
GACGGAATGGACTTTCGGGACGTGCTA	0.529

Sample 3
Target: Transcription factor Sp1 (SP1, Homo sapiens, UniProt P08047, residues 1-785, full length assumed)
Chain of UniProt P08047 (whole entry, looked up): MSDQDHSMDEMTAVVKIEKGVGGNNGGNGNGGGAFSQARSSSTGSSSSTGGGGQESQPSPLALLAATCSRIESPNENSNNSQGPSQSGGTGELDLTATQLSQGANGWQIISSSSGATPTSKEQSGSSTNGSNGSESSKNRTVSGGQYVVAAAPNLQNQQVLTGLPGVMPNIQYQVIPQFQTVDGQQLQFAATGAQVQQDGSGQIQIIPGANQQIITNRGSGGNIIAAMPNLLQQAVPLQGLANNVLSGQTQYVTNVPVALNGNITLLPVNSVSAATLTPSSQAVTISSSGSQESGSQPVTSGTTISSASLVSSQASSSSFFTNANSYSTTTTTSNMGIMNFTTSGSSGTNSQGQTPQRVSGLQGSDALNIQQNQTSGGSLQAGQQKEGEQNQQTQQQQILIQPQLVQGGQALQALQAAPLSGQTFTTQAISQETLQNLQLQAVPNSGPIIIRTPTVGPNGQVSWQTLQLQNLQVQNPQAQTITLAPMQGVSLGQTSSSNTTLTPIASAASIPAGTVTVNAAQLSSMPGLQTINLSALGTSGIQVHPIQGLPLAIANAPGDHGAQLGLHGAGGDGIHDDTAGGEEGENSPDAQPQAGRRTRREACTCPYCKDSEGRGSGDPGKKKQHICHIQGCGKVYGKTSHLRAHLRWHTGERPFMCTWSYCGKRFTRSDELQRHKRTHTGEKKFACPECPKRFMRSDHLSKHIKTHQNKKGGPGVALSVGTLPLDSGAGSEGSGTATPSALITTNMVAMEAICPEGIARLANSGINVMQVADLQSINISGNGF
Technique: protein-binding microarray
Form: double-stranded DNA, one strand shown
Sample: in vitro
Tested at: not given
Notes: k-mer, scored over probes, only values ≥0.25
Reading: higher = stronger binding
Sequence	E-score
CCCCATAG	0.294
GTGTATTA	0.286
ATGTGGGG	0.291
TCATATGA	0.301
GGCGGGAC	0.374
ACACCCCT	0.39
AGGTATTA	0.257
AGGGGAGG	0.468
GGGTGTAC	0.264
ACAGACAA	0.276
CCCCACCC	0.481
ACCGCCCT	0.285
GCATAGTA	0.275
AACATACG	0.275
AGAGGGGC	0.318
CAAATCTA	0.274

Sample 4
Target: RNA binding protein fox-1 homolog 2, RRM domain, GST-SBP tag (RBFOX2, Homo sapiens, UniProt O43251-10, residues 100-194)
Technique: RNA Bind-n-Seq
Form: RNA
Sample: in vitro
Tested at: 365 nM
Notes: natural RNA segment, single round, ends assumed
Baseline: no-protein control
Reading: higher = stronger binding
Construct (chain): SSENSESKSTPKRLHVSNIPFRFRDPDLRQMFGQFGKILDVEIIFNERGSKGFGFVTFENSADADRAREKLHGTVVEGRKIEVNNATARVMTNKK
Sequence	RBNS enrichment (R)
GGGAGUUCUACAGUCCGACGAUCGCAAUCAAGGGGAGAAAACACAGUGUAAGCCGCUGUCAAUAAAUGACACCCAGACCUUCCAGCUGCACUCGGGGUGUGUUUUCAAUUUGUGGGAGCGAGAGGAUCAGAACUGGAAUUCUCGGGUGCCAA	0.866
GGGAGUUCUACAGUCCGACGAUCCAACAGAAGGAAAAGGCUCUUUUCCUUGGAGAUUUUCAAGUUGAAAAAGUACAGCUGCUUGGAUGGAGUUUCUCUCAUCAGAAUAGAAAUAUGCUAGGUGGUCUUCAAGAUGGAAUUCUCGGGUGCCAA	0.333
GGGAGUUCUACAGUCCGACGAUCUAGGCUGCCUCAUCACGCCACUGGAGUCCACACUUGAAUUUGGGCAGCUACCACGGGUCUGCCAUGCUCUGGAGGAGCAAGGGGGCCACAUCCCCACCCCAGCUGUUACCUGGAAUUCUCGGGUGCCAA	0.372
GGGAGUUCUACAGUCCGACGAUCGACAUAUAGCCAAUACAAAUCAAAUGCCGGAGGUGUUUGAUGCCAUAUUUGCAAAUUGCCAUCUAUUGAAAUUCUCGUCACACUACAUAGACAUAAUUGUUAUCUCCUUUUGGAAUUCUCGGGUGCCAA	0.381
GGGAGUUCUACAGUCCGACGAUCCAGUCCCCCUCACUGCUUGAGCUAACACUGCCACCUCUUUUGUGUGAGCACAAAAGCCACGUCCCAAGCCACCUGGCCCGAUUCCACAGAUGUAUGUGCGGCCAGUGACUUGGAAUUCUCGGGUGCCAA	0.26
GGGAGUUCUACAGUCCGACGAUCUGUAAUGGGAAUGUUUAAGUGUUGUGUGCAAGAAAACAAAAUAAAUAUUUUGAUUUUCGUGAUUCUAUGCAUGUCUGUCUACACACUGUCCAAAUAAGCUGGUUCUGGGAUGGAAUUCUCGGGUGCCAA	17.3
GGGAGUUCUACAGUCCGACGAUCAGAAAGUCGGCUGUUGAUACGAUUGUCUGUUAUCGAACACAUUCAGUGAUAAAGCUGGGUUACUGCUGCUUUUGGUGCUCUCACCUUAUCUGGAAGAUCUGCAAACAUUAUGGAAUUCUCGGGUGCCAA	0.632
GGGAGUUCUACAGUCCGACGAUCUCUAGAGAAGGAUUCCUGGAUCUAGCUGGUCACGACGAUGUUUUCACCAAGGUCACAGGAGCAUUGCGUCGCUGAUGGGGUUGAAGUUUGGUUUGGUUCUUGUUUCAGCCUGGAAUUCUCGGGUGCCAA	0.286
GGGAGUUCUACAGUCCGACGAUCAUGGCUUUAUUUAUGAGUGUGGCUUUGAGGAGUUGGGAAGAGGUAACCCACUUCUCUCCCAUCUUCUCCGAGCCAUGACUCAAGAAGAAAAGGGUGCUCGGACUCUCUUAUGGAAUUCUCGGGUGCCAA	0.187
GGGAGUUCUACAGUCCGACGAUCUCAGAUAGACUUGCUGCUACUGGCUUUUCCAUUGUAGAUUGGGUUAUUUUACACGCAGUUCGCCAAAUGGGAUUGCUCUGUAUAGUCAAAUUGGUGAUGGACAGAUGGACUGGAAUUCUCGGGUGCCAA	0.279
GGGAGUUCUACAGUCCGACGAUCCUUUUCUUUUCAGCUUGAUUGCAUUUGACUAUAUUUUACAGCCAGUGAUUGUAGUUUCAUGUUAAUAUGUGGCAAAAUAUUUUUGUAAUUAUUUUCUAAUCCCUUUCUGAUGGAAUUCUCGGGUGCCAA	0.89
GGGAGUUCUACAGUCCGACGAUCCUCCAUGGAGACUUGCUCUUCUUCUGCCCUGGACAUGUGGGGAGCUCCCGCUUCCACCCCCACUGUCCAUCCUGACCUUUCCUUGCCCCACUUUCAGAGUCGAAUCAGCUUGGAAUUCUCGGGUGCCAA	0.498

Sample 5
Target: Histone acetyltransferase KAT6A, winged helix 1, GST fusion (KAT6A, Homo sapiens, UniProt Q92794, residues 1-85)
Technique: protein binding microarray
Form: double-stranded DNA, one strand shown
Sample: in vitro
Tested at: not given
Notes: 8-mer, flanks averaged, mean of 2 arrays, mostly near background
Baseline: not given
Reading: higher = stronger binding
Target sequence (chain): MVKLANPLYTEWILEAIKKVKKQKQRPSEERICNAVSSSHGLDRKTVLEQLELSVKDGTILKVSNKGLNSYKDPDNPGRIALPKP
Sequence	E-score
GCCGTAGC	0.385
ATTTTCGC	0.0233
CTCCACAA	-0.219
ACAATCCA	-0.0663
AGCCTACC	-0.0908
AACTACAC	-0.115
AGCACTCA	-0.253
GCTGCTCC	0.0952
CTGACCTC	-0.133
ACCGTAAA	0.161
AGACTATG	-0.112
AATCGCCC	0.0228
ATTTAGAG	-0.113
TCAGACCA	-0.172
CTACCGCC	0.284
CAATGCCA	-0.184
GAATCAGA	-0.209
GCTATGCC	-0.00693
CTAGAGTA	-0.0532
AGTCCTAT	-0.124
CATGGGAA	-0.178
CGATAGAG	-0.175

Repeated from above (sample 2):
Sequence	fitted relative affinity [z-score]
TTAGGACTGCTTTTCCTTTAGTGCTAG	-0.128
TCAAATTGTCTTTTCACACTGTGCTAG	0.461
TTGGATATCAGACTGGATTAGTGCTAG	-0.702
CTCCCCCTCCCCCTCAGATCGTGCTAG	-0.0582
GACGGTATCGGTTACGGGACGTGCTAG	8.41
